# Measurements collected from several papers.
# Sequences of proteins named here, by UniProt entry; tags and fusion partners are left off. Residues count along the entry.
# UniProt Q9H7M9, whole entry, looked up: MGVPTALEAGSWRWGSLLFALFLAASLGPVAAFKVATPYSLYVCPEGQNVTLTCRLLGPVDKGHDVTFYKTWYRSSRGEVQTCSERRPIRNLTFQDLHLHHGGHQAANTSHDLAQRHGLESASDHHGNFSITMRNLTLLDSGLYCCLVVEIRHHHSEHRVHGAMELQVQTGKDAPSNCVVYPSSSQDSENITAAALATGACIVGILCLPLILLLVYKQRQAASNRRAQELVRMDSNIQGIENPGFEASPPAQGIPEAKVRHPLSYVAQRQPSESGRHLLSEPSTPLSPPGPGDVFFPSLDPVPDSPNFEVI
# UniProt P51531, whole entry, looked up: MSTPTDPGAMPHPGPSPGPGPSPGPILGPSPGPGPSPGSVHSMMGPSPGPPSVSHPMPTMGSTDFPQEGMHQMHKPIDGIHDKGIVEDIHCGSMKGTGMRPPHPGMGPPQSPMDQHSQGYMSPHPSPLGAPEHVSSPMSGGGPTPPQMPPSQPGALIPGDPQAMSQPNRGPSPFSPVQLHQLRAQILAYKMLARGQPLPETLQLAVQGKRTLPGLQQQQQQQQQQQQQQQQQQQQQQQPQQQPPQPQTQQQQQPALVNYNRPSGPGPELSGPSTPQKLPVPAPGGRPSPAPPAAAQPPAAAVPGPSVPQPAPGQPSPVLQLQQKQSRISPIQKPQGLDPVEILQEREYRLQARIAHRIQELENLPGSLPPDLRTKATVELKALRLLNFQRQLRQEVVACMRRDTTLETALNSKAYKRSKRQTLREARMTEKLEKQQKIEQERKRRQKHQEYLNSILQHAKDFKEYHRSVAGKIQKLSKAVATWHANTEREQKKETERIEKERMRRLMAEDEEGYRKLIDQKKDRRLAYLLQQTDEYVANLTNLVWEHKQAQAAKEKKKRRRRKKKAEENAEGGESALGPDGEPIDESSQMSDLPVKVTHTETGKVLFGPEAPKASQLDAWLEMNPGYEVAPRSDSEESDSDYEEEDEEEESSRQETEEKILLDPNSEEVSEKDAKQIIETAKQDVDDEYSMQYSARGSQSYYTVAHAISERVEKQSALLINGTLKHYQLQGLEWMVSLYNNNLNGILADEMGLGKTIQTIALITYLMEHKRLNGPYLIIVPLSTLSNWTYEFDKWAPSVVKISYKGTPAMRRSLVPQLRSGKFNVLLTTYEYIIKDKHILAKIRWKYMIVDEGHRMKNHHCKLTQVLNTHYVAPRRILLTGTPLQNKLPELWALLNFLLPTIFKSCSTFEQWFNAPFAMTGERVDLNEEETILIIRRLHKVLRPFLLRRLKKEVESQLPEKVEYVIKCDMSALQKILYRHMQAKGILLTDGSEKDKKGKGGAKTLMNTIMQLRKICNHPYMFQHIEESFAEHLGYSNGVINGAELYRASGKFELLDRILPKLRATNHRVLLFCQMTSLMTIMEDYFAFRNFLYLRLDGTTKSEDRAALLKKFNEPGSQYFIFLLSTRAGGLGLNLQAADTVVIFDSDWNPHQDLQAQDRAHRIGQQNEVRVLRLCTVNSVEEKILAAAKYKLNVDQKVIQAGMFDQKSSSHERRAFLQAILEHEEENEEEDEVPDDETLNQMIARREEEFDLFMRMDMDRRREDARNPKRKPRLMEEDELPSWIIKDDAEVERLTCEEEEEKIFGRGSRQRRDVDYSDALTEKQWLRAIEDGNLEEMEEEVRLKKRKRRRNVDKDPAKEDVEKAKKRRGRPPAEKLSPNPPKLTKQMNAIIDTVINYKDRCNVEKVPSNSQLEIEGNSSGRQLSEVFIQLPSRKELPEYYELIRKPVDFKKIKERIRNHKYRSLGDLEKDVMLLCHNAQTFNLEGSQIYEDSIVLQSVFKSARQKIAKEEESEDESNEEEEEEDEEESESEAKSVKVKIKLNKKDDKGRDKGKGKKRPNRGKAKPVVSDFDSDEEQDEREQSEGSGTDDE
# UniProt Q7Z6A9, whole entry, looked up: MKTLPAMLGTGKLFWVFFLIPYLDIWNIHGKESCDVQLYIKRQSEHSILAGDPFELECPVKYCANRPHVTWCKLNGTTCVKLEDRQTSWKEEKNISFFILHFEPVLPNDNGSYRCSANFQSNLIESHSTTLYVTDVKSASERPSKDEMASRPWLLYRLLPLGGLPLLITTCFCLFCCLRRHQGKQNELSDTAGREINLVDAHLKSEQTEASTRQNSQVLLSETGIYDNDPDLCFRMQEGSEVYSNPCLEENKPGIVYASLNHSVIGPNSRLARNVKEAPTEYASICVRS
# UniProt Q8VIJ5, whole entry: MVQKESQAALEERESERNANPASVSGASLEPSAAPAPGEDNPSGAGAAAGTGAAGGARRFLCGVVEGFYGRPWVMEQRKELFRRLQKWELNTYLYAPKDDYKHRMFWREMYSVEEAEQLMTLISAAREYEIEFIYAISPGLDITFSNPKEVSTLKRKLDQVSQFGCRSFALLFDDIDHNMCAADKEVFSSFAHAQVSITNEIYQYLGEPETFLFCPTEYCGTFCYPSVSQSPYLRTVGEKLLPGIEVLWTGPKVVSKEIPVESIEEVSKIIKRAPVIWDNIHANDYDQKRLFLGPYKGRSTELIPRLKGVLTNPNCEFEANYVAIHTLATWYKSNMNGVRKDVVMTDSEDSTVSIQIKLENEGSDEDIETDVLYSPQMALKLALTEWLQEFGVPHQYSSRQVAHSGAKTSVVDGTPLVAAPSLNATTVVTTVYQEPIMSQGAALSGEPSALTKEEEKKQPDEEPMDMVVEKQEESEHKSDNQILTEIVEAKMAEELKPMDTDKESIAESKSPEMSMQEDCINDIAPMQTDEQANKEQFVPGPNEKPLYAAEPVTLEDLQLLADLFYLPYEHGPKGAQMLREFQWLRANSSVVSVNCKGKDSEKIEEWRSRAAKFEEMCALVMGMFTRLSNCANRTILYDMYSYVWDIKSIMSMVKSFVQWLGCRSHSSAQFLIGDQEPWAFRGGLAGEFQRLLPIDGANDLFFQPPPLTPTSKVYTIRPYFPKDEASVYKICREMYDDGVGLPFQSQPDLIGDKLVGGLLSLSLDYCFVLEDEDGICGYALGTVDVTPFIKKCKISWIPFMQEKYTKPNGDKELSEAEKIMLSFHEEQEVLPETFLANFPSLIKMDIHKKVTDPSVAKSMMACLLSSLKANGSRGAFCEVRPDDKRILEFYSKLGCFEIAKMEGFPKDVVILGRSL
# UniProt P26842, whole entry, looked up: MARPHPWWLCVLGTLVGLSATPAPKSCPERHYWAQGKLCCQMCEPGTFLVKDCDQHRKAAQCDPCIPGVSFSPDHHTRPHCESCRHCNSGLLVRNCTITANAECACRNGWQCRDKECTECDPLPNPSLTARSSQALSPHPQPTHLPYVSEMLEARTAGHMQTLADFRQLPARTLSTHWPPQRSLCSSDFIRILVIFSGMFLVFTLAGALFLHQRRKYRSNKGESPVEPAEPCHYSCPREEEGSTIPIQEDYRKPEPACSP
# UniProt Q92793, 1081-1197 limits assumed: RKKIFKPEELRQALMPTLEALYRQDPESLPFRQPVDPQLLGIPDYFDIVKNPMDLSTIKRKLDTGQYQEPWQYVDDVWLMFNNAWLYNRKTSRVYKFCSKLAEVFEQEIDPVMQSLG
# Each line is one published result; not all experiments were run side by side. ± marks the error that the study gave.
# RPA1 N-terminal domain: Replication protein A 70 kDa DNA-binding subunit, N-terminal domain (RPA1, Homo sapiens, UniProt P27694)
# VSIR: V-type immunoglobulin domain-containing suppressor of T-cell activation (VSIR, Homo sapiens, UniProt Q9H7M9)
Structure (SMILES),target,test,test system,setting,Kd
COC1C=COC2(C)Oc3c(C)c(O)c4c(O)c(cc(OCC(=O)O)c4c3C2=O)NC(=O)C(C)=CC=CC(C)C(O)C(C)C(O)C(C)C(OC(C)=O)C1C (stereo not drawn),"rpoB (Escherichia coli K-12, UniProt P0A8V2)","binding, competition pulldown MS",Escherichia coli lysate,,0.09 µM
Cc1cccc(C2NC(=O)c3c(Cl)cccc3N2)c1 (racemic),"SMARCA2 (Homo sapiens, UniProt P51531)",ITC,,"bromodomain, wild type",> 70 µM
O=C(O)c1cc(Nc2nnc(-c3ccccc3)c(=O)[nH]2)ccc1O,"B- and T-lymphocyte attenuator (BTLA, Homo sapiens, UniProt Q7Z6A9)","binding, microscale thermophoresis",,,3.21 µM
Cc1ccc(C(=O)Nc2cc(F)ccc2C(=O)O)cc1S(=O)(=O)Nc1cccc(Cl)c1,RPA1 N-terminal domain,"binding, fluorescence polarisation competition",,with: FITC-ATRIP probe,22 ± 3 µM
CCCCS(=O)(=O)c1nnc(NC(=O)COc2ccccc2OC)s1,VSIR,microscale thermophoresis,,,4.46 µM
Cc1ccc(C(=O)Nc2cc(Br)ccc2C(=O)O)cc1S(=O)(=O)Nc1ccc(Br)cc1,RPA1 N-terminal domain,"binding, fluorescence polarisation competition",,with: FITC-ATRIP probe,18 ± 1.5 µM
CC(=O)Nc1ncc(CN2CC[C@H](Oc3cccc(F)n3)C[C@@H]2C)s1 [isotope labelled],"Protein O-GlcNAcase (Rattus norvegicus, UniProt Q8VIJ5)",saturation binding,rat cortex homogenate,radiolabelled compound,0.0036 ± 0.0008 µM
Cc1ccc(C(=O)Nc2ccccc2C(=O)O)cc1S(=O)(=O)NCC1CCCCC1,RPA1 N-terminal domain,"binding, fluorescence polarisation competition",,with: FITC-ATRIP probe,126 ± 1 µM
CCN(CC(=O)Nc1ccc2c(c1)OCCO2)c1ncnc2scc(-c3ccc(OC)cc3)c12,"CD27 antigen (CD27, Homo sapiens, UniProt P26842)","binding, microscale thermophoresis",,,4.21 µM
"Cc1noc(C)c1-c1ccc2nc(-c3cnn(CC(C)(C)O)c3)nc(N3CCOC[C@@H]3c3ccccc3)c2c1 (single isomer, unassigned)","CREBBP (Homo sapiens, UniProt Q92793)",BROMOscan competition binding,,,0.26 µM
Cc1cc(NC(=O)c2ccc(C)c(S(=O)(=O)Nc3cccc(Cl)c3)c2)c(C(=O)O)cc1C,RPA1 N-terminal domain,"binding, fluorescence polarisation competition",,with: FITC-ATRIP probe,> 250 µM
C=CCn1c(CN(C)Cc2cc(OC)c(OC)c(OC)c2)nnc1SCC1CCCO1 (stereo not drawn),VSIR,microscale thermophoresis,,,0.72 µM

# Excerpt of the above:
Structure (SMILES),target,test,test system,setting,Kd
CCN(CC(=O)Nc1ccc2c(c1)OCCO2)c1ncnc2scc(-c3ccc(OC)cc3)c12,"CD27 antigen (CD27, Homo sapiens, UniProt P26842)","binding, microscale thermophoresis",,,4.21 µM
